Assay results collected from several papers.
Each line is one published result; not all experiments were run side by side. ± marks the error that the study gave.

SMILES = O=C(Nc1cnccc1-c1ccc([18F])nc1)c1ccnc(NC(=O)C2CC2)c1; system = FVB/NJ mice, both sexes, liver; setting = intravenous, 20 min, median, no P-gp inhibitor; endpoint = SUV; value = 8.96
SMILES = O=c1c2ccccc2[se]n1CCCCCCn1[se]c2ccccc2c1=O; assay = shake-flask, RP-HPLC; system = ethyl acetate; setting = 24 h, 25 °C; endpoint = solubility; value = 240 ± 20 µg/mL
SMILES = CC[C@H](C)[C@H](NC(=O)[C@H](CC(N)=O)NC(=O)[C@@H](N)CCSC)C(=O)N[C@@H](CCSC)C(=O)N[C@@H](CC(=O)O)C(=O)N[C@@H](Cc1ccccc1)C(=O)N[C@@H](CC(N)=O)C(=O)N[C@H](C(=O)N[C@@H](CCCCN)C(=O)N[C@@H](CCCCN)C(=O)N[C@@H](CC(C)C)C(=O)N[C@@H](C)C(=O)N[C@@H](C)C(=O)N[C@@H](CC(=O)O)C(=O)N[C@@H](C)C(=O)NCC(=O)N[C@H](C(=O)N[C@@H](Cc1c[nH]c2ccccc12)C(=O)N[C@@H](CC(C)C)C(=O)N[C@@H](CO)C(=O)N[C@@H](CCCNC(=N)N)C(=O)N[C@@H](C)C(=O)N[C@H](C(=O)N[C@@H](CCC(N)=O)C(=O)N[C@@H](Cc1ccccc1)C(=O)N[C@H](C(=O)N[C@@H](CCC(=O)O)C(=O)N[C@@H](CCC(=O)O)C(=O)N[C@@H](CCCCN)C(=O)N[C@@H](CC(C)C)C(=O)NCC(=O)N[C@@H](CCC(N)=O)C(=O)N[C@@H](C)C(N)=O)[C@@H](C)O)C(C)C)[C@@H](C)O)C(C)C; assay = circular dichroism; system = aqueous TFE; setting = 50 µM, pH 7.4, 20 °C; endpoint = m value; value = 1.13 ± 0.1 kcal/mol/M
SMILES = COc1cccc(OC)c1-c1cc(C(=O)NC2(C(=O)O)C3CC4CC(C3)CC2C4)nn1-c1ccc(C(=O)N(C)CCCN(C)CCCN(C)C(=O)[C@H](CCCCNC(=O)[C@H](CC(C)C)NC(=O)C2OC2C(=O)O)NC(=O)CN2CCN(CC(=O)[O-])CCN(CC(=O)[O-])CCN(CC(=O)[O-])CC2)cc1C(C)C.[177Lu+3] (mixture of isomers); system = mouse HT-29 xenograft; setting = 4 h, biodistribution; scale = reference: tumour over large intestine; endpoint = tumour-to-large intestine ratio; value = 9.66
SMILES = CN1CCCC1C(=O)NC(Cc1ccc(-n2cccn2)cc1)B(O)O (stereo not shown); system = Caco-2; endpoint = Papp A→B; value = 0.54 ×10⁻⁶ cm/s
SMILES = O=C([O-])CN1CCN(CC(=O)[O-])CCN(C(CO)C(O)CO)CCN(CC(=O)[O-])CC1.[Dy+3] (stereo not shown); system = female cynomolgus monkey, plasma; setting = intravenous, dose not given; endpoint = effective half-life; value = 1.21 h
SMILES = CC[C@H](C)[C@@H]1NC(=O)[C@H](Cc2ccc(O)cc2)NC(=O)CCCSC[C@@H](C(=O)N(CC(=O)N[C@@H](CC(C)C)C(=O)NCC(N)=O)Cc2ccc(F)cc2)NC(=O)[C@H](CC(N)=O)NC(=O)[C@H](CCC(N)=O)NC1=O; system = healthy human females, plasma; setting = intranasal, 200 µg single dose; endpoint = Cmax; value = 0.095 ng/mL
SMILES = C#CCCC[C@H](NC(=O)[C@H](C)NC(=O)[C@H](CCCNC(=N)N)NC(=O)[C@H](C)NC(=O)[C@H](CS)NC(=O)[C@H](CCC(=O)O)NC(=O)[C@H](C)NC(C)=O)C(=O)N[C@@H](C)C(=O)N[C@@H](Cc1ccc(O)cc1)C(N)=O; assay = circular dichroism; system = 10 mM phosphate buffer; setting = pH 7.4, 20 °C; endpoint = helicity; value = 15%
SMILES = COc1cccc(OC)c1-c1cc(C(=O)NC2(C(=O)O)C3CC4CC(C3)CC2C4)nn1-c1ccc(C(=O)N(C)CCOCCOCCN(C)C(=O)[C@H](CCCCNC(=O)[C@H](CC(C)C)NC(=O)C2OC2C(=O)O)NC(=O)CN2CCN(CC(=O)[O-])CCN(CC(=O)[O-])CCN(CC(=O)[O-])CC2)cc1C(C)C.[177Lu+3] (mixture of isomers); system = mouse, HT-29 xenograft; setting = 72 h post injection, biodistribution; scale = reference: tumour over lung uptake; endpoint = tumour-to-lung ratio; value = 5.14
SMILES = CCCCCCCC/C=C\CCCCCCCCO[Si](CCCCN(C)C)(OCCCCCCCC/C=C\CCCCCCCC)OCCCCCCCC/C=C\CCCCCCCC; setting = pH 7.5, formulated; endpoint = zeta potential; value = -1.35 mV
SMILES = COC(=O)C1=CNC=C(C(=O)OC)C1c1ccc(F)c(C(F)(F)F)c1; system = male Sprague-Dawley rat, plasma; setting = oral, 50 mg/kg; endpoint = AUC(0-t); value = 3480 ng·h/mL
SMILES = CCCC[C@H](NC(=O)CNC(=O)CNC(=O)[C@H](CCCCNC(=O)[C@H](CC(=O)O)NC(=O)C(C)c1ccc(CC(C)C)cc1)NC(=O)CN1CCN(CC(=O)O)CCN(CC(=O)O)CCN(CC(=O)O)CC1)C(=O)N[C@H]1CC(=O)NCCCC[C@@H](C(N)=O)NC(=O)[C@H](Cc2c[nH]c3ccccc23)NC(=O)[C@H](CCCNC(=N)N)NC(=O)[C@@H](Cc2ccccc2)NC(=O)[C@H](Cc2c[nH]cn2)NC1=O (stereo partly shown) [lutetium-177 labelled]; system = C57 mice, tumour-bearing, blood; setting = intravenous, 0.037 MBq, 24 h; endpoint = tissue uptake; value = 0.09 ± 0.02 %ID/g
SMILES = CC(C)C[C@H](NC(=O)[C@H](CCCN)NC(=O)CNC(=O)[C@@H](NC(=O)[C@H](C)NC(=O)[C@@H]1CSCSC[C@H](NC(=O)CC[C@H](N)C(=O)O)C(=O)N[C@@H](CC(N)=O)C(=O)N[C@@H]([C@@H](C)O)C(=O)N[C@@H](C)C(=O)N[C@@H]([C@@H](C)O)C(=O)N1)[C@@H](C)O)C(=O)N[C@@H](C)C(=O)N[C@@H](CCC(=O)O)C(=O)N[C@@](C)(Cc1ccccc1)C(=O)N[C@@H](CC(C)C)C(=O)N[C@H](C(=O)N[C@@H](CCCNC(=N)N)C(=O)N[C@@H](CO)C(=O)N[C@@H](CO)C(=O)N[C@@H](CC(N)=O)C(=O)N(C)[C@@H](CC(N)=O)C(=O)N[C@@H](Cc1ccccc1)C(=O)NCC(=O)N1CCC[C@H]1C(=O)N[C@@H](CCCCNC(=O)CC[C@H](NC(=O)CC[C@H](NC(=O)CCCCCCCCCCCCCCCCCCC(=O)O)C(=O)O)C(=O)O)C(=O)N[C@@H](CC(C)C)C(=O)N1CCC[C@H]1C(=O)N1CCC[C@H]1C(=O)N[C@H](C(=O)N[C@@H](CCC(=O)O)C(=O)N[C@H](C(=O)NCC(=O)N[C@@H](CO)C(=O)N[C@@H](CC(N)=O)C(=O)N[C@H](C(=O)N[C@@H](Cc1ccc(O)cc1)C(N)=O)[C@@H](C)O)C(C)C)[C@@H](C)O)C(C)C; system = healthy human; setting = subcutaneous, 4 mg; endpoint = %AUC extrapolated; value = 5.8%
SMILES = CC[C@H](C)[C@H](NC(=O)[C@H](Cc1ccccc1)NC(=O)[C@H](CCC(=O)O)NC(=O)[C@H](CCCCN)NC(=O)[C@H](C)NC(=O)[C@H](C)NC(=O)[C@H](CCC(N)=O)NC(=O)CNC(=O)[C@H](CCC(=O)O)NC(=O)[C@H](CC(C)C)NC(=O)[C@H](Cc1ccc(O)cc1)NC(=O)[C@H](CO)NC(=O)[C@H](CO)NC(=O)[C@@H](NC(=O)[C@H](CC(=O)O)NC(=O)[C@H](CO)NC(=O)[C@@H](NC(=O)[C@H](Cc1ccccc1)NC(=O)[C@@H](NC(=O)CNC(=O)[C@H](CCC(=O)O)NC(=O)[C@H](C)NC(=O)[C@@H](N)Cc1c[nH]cn1)[C@@H](C)O)[C@@H](C)O)C(C)C)C(=O)N[C@@H](C)C(=O)N[C@@H](Cc1c[nH]c2ccccc12)C(=O)N[C@@H](CC(C)C)C(=O)N[C@H](C(=O)N[C@@H](CCCNC(=N)N)C(=O)NCC(=O)N[C@@H](CCCNC(=N)N)C(=O)NCC(=O)O)C(C)C; assay = LC-MS/MS; system = ICR mice, male, plasma; setting = intravenous bolus, 1 mg/kg; endpoint = AUC extrapolated percentage; value = 0.59%
SMILES = CC(C)C[C@@H]1NC(=O)[C@H](C(C)C)NC(=O)[C@H](Cc2c[nH]c3ccccc23)NC(=O)[C@@H]2CSSC[C@H](NC(=O)[C@H](Cc3ccc(O)cc3)NC(=O)[C@H](C(C)C)NC(=O)[C@H](CCCNC(=N)N)NC(=O)CNC(=O)[C@H]3CCCN3C1=O)C(=O)N[C@@H](CCC(N)=O)C(=O)N1CCC[C@H]1C(=O)NCC(=O)N[C@@H](Cc1c[nH]c3ccccc13)C(=O)N2; system = Caco-2; endpoint = Papp A→B; value = 7.28 ×10⁻⁶ cm/s
SMILES = C/C(N)=N/C(=N\S(=O)(=O)c1ccc(C(F)(F)F)cc1)N1C[C@H](c2ccccc2)C(c2ccc(Cl)cc2)=N1; system = C57BL/6 mouse, male, brain; setting = intravenous, 10 mg/kg; scale = reference: brain over plasma; endpoint = tissue/plasma ratio; value = 0.05
SMILES = COc1cccc(OC)c1-c1cc(C(=O)NC2(C(=O)O)C3CC4CC(C3)CC2C4)nn1-c1ccc(C(=O)NCCNC(=O)[C@H](CCCCNC(=O)[C@H](CC(C)C)NC(=O)C2OC2C(=O)O)NC(=O)CN2CCN(CC(=O)[O-])CCN(CC(=O)[O-])CCN(CC(=O)[O-])CC2)cc1C(C)C.[177Lu+3] (mixture of isomers); system = mouse HT-29 xenograft; setting = 4 h, biodistribution; scale = reference: tumour over large intestine; endpoint = tumour-to-large intestine ratio; value = 9.56
SMILES = C=C(NC(=O)c1csc(-c2nc3c(cc2O)-c2nc(cs2)C(=O)NC(C(C)O)C(=O)NC(=C(C)OC)c2nc(cs2)C(=O)NC2c4nc(cs4)C(=O)NC(COC(=O)c4c5c6c(cccc6n4O)COC(=O)C(OC4CC(C)(O)C(N(C)C)C(C)O4)C2OC5)c2nc-3cs2)n1)C(N)=O (stereo not shown); system = male cynomolgus monkey, plasma; setting = intravenous, 9 mg/kg, single dose, infusion; endpoint = AUC(0-inf); value = 47600 ng·h/mL
SMILES = CN(O)C(=O)CCC(=O)NCCCN(CCCCN(CCCNC(=O)CCC(=O)N(C)O)C(=O)CCC(=O)N(C)O)C(=O)CCC(=O)N(C)O.[89Zr]; assay = radio-TLC; system = aqueous buffer; setting = 1 d, pH 7.2, 37 °C, 89Zr-labelled complex, added: CuCl2 10-fold excess; endpoint = intact complex; value = 97.9 ± 1.3%
SMILES = C=CC(=O)Nc1cc(Nc2nccc(-c3cn(C)c4ccccc34)n2)c(OC)cc1N(C)CCNC; system = human plasma; setting = 5 h, storage stability, medium QC sample; endpoint = recovery; value = 94.1%
SMILES = C=CC[C@@H]1/C=C(\C)C[C@H](C)C[C@H](OC)[C@H]2O[C@@](O)(C(=O)C(=O)N3CCCC[C@H]3C(=O)O[C@H](/C(C)=C/[C@@H]3CC[C@@H](O)[C@H](OC)C3)[C@H](C)[C@@H](O)CC1=O)[C@H](C)C[C@@H]2OC; system = kidney transplant recipients, CYP3A5 *3/*3, whole blood; setting = oral, dose not given, early phase, limited sampling; endpoint = dose-normalized AUC(0-12h); value = 144 ± 57.5 ng·h/mL
SMILES = O=C(NNCc1ccccc1)C1(C(F)(F)F)CC1; system = PBS; setting = 2 h, pH 7.4, 25 °C; endpoint = solubility; value = ≥ 400 µM
SMILES = CC[C@H](C)[C@H](NC(=O)[C@H](CCCCN)NC(C)=O)C(=O)N[C@@H](C)C(=O)N[C@@H](C)C(=O)N[C@@H](CC(C)C)C(=O)N[C@@H](CCCCN)C(=O)N[C@@H](CCC(=O)O)C(=O)N[C@@H](CCCCN)C(=O)N[C@H](C(=O)N[C@@H](C)C(=O)N[C@@H](C)C(=O)N[C@@H](CC(C)C)C(=O)N[C@@H](CCCCN)C(=O)N[C@@H](CCC(=O)O)C(=O)N[C@@H](CCCCN)C(=O)N[C@H](C(=O)N[C@H]1CSCc2ccccc2CSC[C@@H](C(=O)NCC(=O)N[C@@H](Cc2c[nH]c3ccccc23)C(N)=O)NC(=O)[C@H](CCCCN)NC(=O)[C@H](CC(C)C)NC(=O)[C@H](C)NC1=O)[C@@H](C)CC)[C@@H](C)CC; assay = circular dichroism at 222 nm; system = PBS; setting = pH 7.4, 20 °C, single peptide 50 µM total; endpoint = helicity; value = 75%
SMILES = COCC1CN(C2CCN(c3cc(OC)c(Nc4ncc(Br)c(Nc5ccc6c(c5P(C)(C)=O)OCCO6)n4)cc3C)CC2)C1; assay = first-in-human trial; system = human; setting = oral, 90 mg once daily; scale = any treatment-related; endpoint = adverse events; value = 66.7%
SMILES = Cc1ccc(CN2C(=O)/C(=N\c3ccc(Cl)cc3Br)c3ccccc32)cc1; system = mouse, blood; setting = 200 mg/kg; endpoint = Lym%; value = 54.3 ± 6.39%
